Measurements of several laboratories.
Lines come from different studies, so protocols differ.
CYP3A4: Cytochrome P450 3A4 (CYP3A4, Homo sapiens, UniProt P08684)
Chain of UniProt P08684 (whole entry, looked up): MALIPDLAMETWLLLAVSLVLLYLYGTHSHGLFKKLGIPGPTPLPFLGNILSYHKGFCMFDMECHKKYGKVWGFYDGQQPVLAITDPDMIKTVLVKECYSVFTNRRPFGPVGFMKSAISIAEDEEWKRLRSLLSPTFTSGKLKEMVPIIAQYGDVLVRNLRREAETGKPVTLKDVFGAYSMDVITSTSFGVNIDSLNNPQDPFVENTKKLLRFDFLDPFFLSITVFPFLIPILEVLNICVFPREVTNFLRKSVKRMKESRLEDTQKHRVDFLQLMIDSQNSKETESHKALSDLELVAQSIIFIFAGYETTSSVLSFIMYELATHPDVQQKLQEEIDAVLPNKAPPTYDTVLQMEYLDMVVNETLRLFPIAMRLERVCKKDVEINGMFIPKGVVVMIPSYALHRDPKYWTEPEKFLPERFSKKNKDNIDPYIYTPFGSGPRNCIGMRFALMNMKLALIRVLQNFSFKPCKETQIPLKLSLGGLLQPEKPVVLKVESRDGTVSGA
Chain of UniProt P20815 (whole entry, looked up): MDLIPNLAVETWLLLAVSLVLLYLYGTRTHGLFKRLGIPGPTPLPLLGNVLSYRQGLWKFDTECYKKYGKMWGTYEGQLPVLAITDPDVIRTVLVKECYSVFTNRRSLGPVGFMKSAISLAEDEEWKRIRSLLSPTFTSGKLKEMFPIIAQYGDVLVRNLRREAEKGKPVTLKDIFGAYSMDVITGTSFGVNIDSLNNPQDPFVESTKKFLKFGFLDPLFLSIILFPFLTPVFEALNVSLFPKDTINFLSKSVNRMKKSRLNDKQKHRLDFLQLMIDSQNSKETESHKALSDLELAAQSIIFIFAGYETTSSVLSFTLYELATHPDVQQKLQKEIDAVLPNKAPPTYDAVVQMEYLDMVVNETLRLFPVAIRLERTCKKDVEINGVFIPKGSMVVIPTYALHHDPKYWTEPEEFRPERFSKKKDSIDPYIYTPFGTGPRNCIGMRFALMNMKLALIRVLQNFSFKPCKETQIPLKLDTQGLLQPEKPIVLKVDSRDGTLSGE

CNC(=O)C1CCCN(C(=O)C2CC3CCC2N3C(=O)[C@@H]2C[C@@H](O)CN2C(=O)NCc2cccc(Cl)c2F)C1 (mixture of isomers)
remaining activity (CYP3A4 (human); inhibitor, time-dependent inhibition; 0.206 µM, preincubated without NADPH, with: testosterone substrate; reference: negative control): 98.9%

COC1CN([C@H]2CC[C@H]([C@@]3(C)Oc4c(Cl)cc(C(=O)NCc5c(SC)cc(C)[nH]c5=O)c(C)c4O3)CC2)C1
log2 fold change (RNA-seq, refers to: RHBDF1; human, whole blood; dose not given, 24 h; reference: pretreatment baseline): 3.42

C=CC(=O)Nc1cc(Nc2nccc(-c3cn(C)c4ccccc34)n2)c(OCC(F)(F)F)nc1N(C)CCN(C)C
contribution to substrate depletion (Cytochrome P450 3A5 (CYP3A5, Homo sapiens, UniProt P20815); substrate; 3 µM, 60 min, 3A5 isoform, liver abundance-normalized): 0.308%

C=C(NC(=O)c1csc(-c2nc3c(cc2O)-c2nc(cs2)C(=O)NC(C(C)O)C(=O)NC(=C(C)OC)c2nc(cs2)C(=O)NC2c4nc(cs4)C(=O)NC(COC(=O)c4c5c6c(cccc6n4O)COC(=O)C(OC4CC(C)(O)C(N(C)C)C(C)O4)C2OC5)c2nc-3cs2)n1)C(N)=O (stereo not drawn)
AUC(0-t) (ICR mice, Streptococcus pneumoniae ATCC 49169 infected, immunocompromised, blood; intravenous, 2 mg/kg three times daily): 0.131 µM·h

Cc1ncsc1-c1ccc(C(C)NC(=O)C2CC(O)CN2C(=O)C(NC(=O)CCCCCCCCCCN2CCCC(Nc3ncc(Cl)c(Nc4ccccc4S(=O)(=O)C(C)C)n3)C2)C(C)(C)C)cc1 (stereo not drawn)
log2 fold change (22Rv1; RNA-seq, refers to: PPP1R3D mRNA; concentration not given; reference: DMSO): -1.95

C=CC(=O)N1CC2(CCN(c3nc(OC4CCN(CCCOC)CC4)nc4c(OCC(F)(F)F)c(-c5c(C)ccc6[nH]ncc56)c(C5CC5)cc34)CC2)C1
half-life (glutathione; reaction with glutathione, HPLC; pH 7.4, 37 °C, with: 5 mM glutathione): 1.01 h

O=C(c1ccc(C23CC(S(F)(F)(F)(F)F)(CO2)C3)cc1)N1CCN(c2ncccn2)CC1
kobs (CYP3A4; time-dependent inhibition, inhibitor): 0.012 min⁻¹

C=CC(=O)N1C[C@H](C)N(c2nc(OC[C@@]34CCCN3C[C@H](F)C4)nc3c(F)c(-c4ccc(F)c5sc(N)c(C#N)c45)c(C(F)(F)F)cc23)C[C@H]1C
half-life (glutathione; reaction with glutathione, HPLC; pH 7.4, 37 °C, with: 5 mM glutathione): 1.25 h

CN(CC(F)(F)F)C(=O)CN1CN(c2ccccc2)C2(CCN(C(=O)c3ccc4[nH]ncc4c3)CC2)C1=O
IC50 (CYP3A4; enzyme activity, inhibitor): 22 µM

C=CC(=O)Nc1cccc(Cn2ncc3cnc(Nc4cnn(CCOC)c4)nc32)c1
binding (human SNARK; KINOMEscan; 100 nM; reference: control): 20%

O=C(CN1CN(c2ccccc2)C2(CCN(C(=O)c3ccc4[nH]ncc4c3)CC2)C1=O)N(CCO)CC(F)(F)F
IC50 (CYP3A4; enzyme activity, inhibitor): 31 µM

N#Cc1cc(NC(=O)C2c3ccccc3C(=O)N(CC(F)(F)F)C2c2cccnc2)ccc1F (racemic)
inhibition (CYP1A2, 2C9, 2C19, 2D6, 3A4 (human); substrate turnover; liver microsomes; 10 µM, maximum across isoforms): < 50%
